Published values collected from several papers.
Parts stem from different laboratories: compare values within a part only.

Block 1 — technique: universal PBM; molecule type: double-stranded DNA, one strand shown; sample: in vitro; concentration: not given; reading: higher = stronger binding
Target: Sal-like protein 4, full length isoform B (SALL4, Homo sapiens, UniProt Q9UJQ4-2, residues 1-616)
Setting: 8-mer, flanks averaged, mean of replicates
For `ATCTAACC`, the E-score was 0.0271.
`AGACTGGG` has an E-score of -0.182.
`CTGTCCGC` has an E-score of -0.286.
With `TCTGAGAA` the E-score was 0.0732.
For `CGGTTCTA`, the E-score was -0.0918.
`CTTCCCCC` has an E-score of -0.00859.
With `AGTTTTGA` the E-score was 0.0721.
`AGTGCCCA` has an E-score of -0.194.

Block 2 — observed: enzyme activity; action: inhibitor; concentration: 20 µM; setting: primary screen
Target: Replicase polyprotein 1ab, main protease (rep, Severe acute respiratory syndrome coronavirus 2, UniProt P0DTD1)
For `CC1=NN(c2ccc(C(=O)O)cc2)C(=O)C1=Cc1ccc(-c2cc(C)c(C)cc2[N+](=O)[O-])o1`, the inhibition was 31.6%.
With `O=C(O)[C@H]1O[C@@H](Oc2cc3oc(-c4ccccc4)cc(=O)c3c(O)c2O)[C@H](O)[C@@H](O)[C@@H]1O` the inhibition was 67.8%.
For `CCCCCCCCCCCCCCCC[n+]1ccn(Cc2ccccc2)c1C`, the inhibition was 83.4%.
`O=C(/C=C/c1ccc2ccc(C(F)(F)F)cc2n1)c1ccncc1` gave an inhibition of 52.4%.

Block 3 — observed: enzyme activity; action: inhibitor; concentration: 20 µM
Target: Replicase polyprotein 1ab, polymerase (rep, Severe acute respiratory syndrome coronavirus 2, UniProt P0DTD1)
`CCC[C@H](NC(=O)/C(C#N)=C/c1cccc(Br)n1)c1ccccc1` gave an inhibition of -2.23%.
For `C[C@@H]1C[C@H]2[C@@H]3CCC4=CC(=O)C=C[C@]4(C)[C@@]3(Cl)[C@@H](O)C[C@]2(C)[C@@]1(O)C(=O)CCl`, the inhibition was 0.19%.
With `Oc1ccc(Cl)c2cccnc12` the inhibition was -12.7%.
For `C[C@@H](O)[C@H]1C(=O)N2C(C(=O)[O-])=C(SC3Cn4cnc[n+]4C3)[C@H](C)[C@H]12` (some centres unmarked), the inhibition was -2.51%.
`COC(=O)c1ccc2c(c1)nc(NC(=O)c1ccccc1)n2CCCc1ccccc1` has an inhibition of -4.38%.
`O=C(CCCCCCC(=O)Nc1ccccc1)NO` gave an inhibition of -4.25%.
For `CC(CNS(=O)(=O)C(C)C)c1ccc(-c2ccc(C#N)cc2)cc1` (centres unmarked), the inhibition was -0.21%.
`CCN1C[C@H](C)n2c(c(O)c3c(=O)n(Cc4ccc(F)c(Cl)c4)nc(C(=O)NC)c32)C1=O` has an inhibition of -2.39%.
`CO[C@H]1C[C@H](O[C@H]2CC[C@@]3(C)[C@H](CC[C@@H]4[C@@H]3CC[C@]3(C)[C@@H](C5=CC(=O)OC5)[C@@H](OC(C)=O)C[C@]43O)C2)O[C@@H](C)[C@@H]1O` gave an inhibition of 4.01%.
For `Cc1cc(C2CCCCC2)n(O)c(=O)c1`, the inhibition was 11.6%.
`CC(CN(C)C)CN1c2ccccc2Sc2ccc(C#N)cc21` (centres unmarked) gave an inhibition of 0.89%.
For `CCOc1ccc(/N=C(\C)Nc2ccc(OCC)cc2)cc1`, the inhibition was 0.36%.
The inhibition of `CC(C(=O)O)c1ccc2c(c1)Cc1ccccc1-2` (centres unmarked) is reported as -1.89%.
`Cc1[nH]nc(C(F)(F)F)c1Cc1sc2c(c1C(=O)N1C[C@](C)(O)CO1)c(=O)n(C)c(=O)n2C(C)C` gave an inhibition of -0.35%.

Block 4 — cell line: HEK-293T; observed: pseudovirus infection; organism: VSV pseudotyped with SARS-CoV-2 spike; concentration: 10 µM; time: 16 h; reference: vehicle-treated
With `CCCCC(=O)N(Cc1ccc(-c2ccccc2-c2nnn[nH]2)cc1)[C@H](C(=O)O)C(C)C` the GFP-positive cells was 82.5%.
With `O=C(O)[C@@H](S)[C@@H](S)C(=O)O` the GFP-positive cells was 81.7%.
The GFP-positive cells of `Cc1cc(/C=C/C#N)cc(C)c1Nc1ccnc(Nc2ccc(C#N)cc2)n1` is reported as 0.13%.

Repeated from above (block 3):
For `C[C@@H]1C[C@H]2[C@@H]3CCC4=CC(=O)C=C[C@]4(C)[C@@]3(Cl)[C@@H](O)C[C@]2(C)[C@@]1(O)C(=O)CCl`, the inhibition was 0.19%.
With `Oc1ccc(Cl)c2cccnc12` the inhibition was -12.7%.
